Measurements pooled from the literature.
Each numbered part is a random draw from the data of one study; scales do not carry over between parts.

Set 1
Target: RING finger protein unkempt homolog, zinc fingers 1-6, GST-SBP tag (UNK, Homo sapiens, UniProt Q9C0B0, residues 30-357)
Chain of UniProt Q9C0B0 (30-357, looked up): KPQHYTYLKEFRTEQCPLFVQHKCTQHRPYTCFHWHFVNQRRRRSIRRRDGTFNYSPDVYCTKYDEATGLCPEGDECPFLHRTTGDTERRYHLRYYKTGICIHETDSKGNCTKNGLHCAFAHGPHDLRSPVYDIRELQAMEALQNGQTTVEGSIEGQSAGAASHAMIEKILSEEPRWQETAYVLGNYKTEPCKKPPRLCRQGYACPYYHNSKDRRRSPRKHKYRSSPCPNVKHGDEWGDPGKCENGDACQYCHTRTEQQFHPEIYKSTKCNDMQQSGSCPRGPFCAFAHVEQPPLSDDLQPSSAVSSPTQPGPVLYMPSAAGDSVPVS
Method: RNA Bind-n-Seq
Molecule type: RNA
Medium: in vitro
Tested at: not given
Setting: RNA with constant flanks, ends assumed
Baseline: input RNA pool
Reading: higher = stronger binding
Constant ends, left off below: GGGAGUUCUACAGUCCGACGAUC … CAACAGAGGAUUGAGCAUCA
Sequence | bound/input enrichment [ratio]
CCCAACAACACAGUAGUUGGGUCAUCAUAUGUACUUUUUGUCUUAUCAAUUUUCUUUACAACCGCCGGACUUCUAUUUGCUGGCAAAGUUUGUUUACCAGGCUGAUGAAUGUCUAAAUUG | 0.205
GCAUUUGUAGAAGGAGUGGUUAAGAAAGUAGCUCAAUACAUGGCUGAUGUAUUGGAAGACCGCAAAGACAAAGUUCAAGAGAAUCUGUUGGCUAAUGGAGUGGACUUGGUUACUUAUAUA | 0.352
CUCAUGGCUGCAGAAACAGGAAGUGGAAAAACUGGUGCAUUUAGUAUUCCCGUUAUCCAGACCGUGUAUGAAACUCUGAAAGACCAACAGGAAGGAAAGAAAGGGAAAACAACUAUUAAA | 0.55
GACAUUCUAAUUGGUACAGACUGAAACCUUUAUAGGAGUUAUGCAGUUCAGAAGUGGACUUCCGGUAAGUCAUUUAUUUUAAGCUGUUGAUAUAGAGAUUUAUUUUCUGUAAAUUUUGAC | 0.706
AUUAUAAGAGAAACAGAAAAUGAUGACCUUACCAAUGUAAUUCAGAAAAUGAUCUGUGAAUACCGUGAAGAAGUUACUCCUAUUGCAGUAGAAAUGACACAACAUUUGGCAAUGACAUUU | 0.179
GAAAGGGGUUCAUCUCAGAGACCAUAUCGAGAAUCUUCUGACAAUGAAGGUAGGCGUACAACCCGGAGAUUGCUGUCACGGAUAGCUUCUAGCAUGUCAUCUACUUUUUUCUCACGAAGA | 0.121
CCAUAGUAUGUGACUCUACAUAACAUACUGAAACUAUUUAUAUUUUCUUUUUUAAGGAUAUUCCGAAAUUUUGUGUAUUAUAUGGAAAAAGAAAAAAAGCUUAAGUCUGUAGUCUUUAUG | 0.149
UAUGGCAUCUCCCUUGCUUGCUGCAGCAGGGAUGGAAGAAAUGUCACUUUCUUUUUAAGCCCGCAAGCUUUUUCUUUUUCUUUUUCUUCUUCUAUUUAAAAAUUCUAAUCAUGGAUGCUU | 4.76

Set 2
Target: Hepatocyte nuclear factor 3-alpha (Foxa1, Mus musculus, UniProt P35582, residues 1-468, full length assumed)
Chain of UniProt P35582 (whole entry, looked up): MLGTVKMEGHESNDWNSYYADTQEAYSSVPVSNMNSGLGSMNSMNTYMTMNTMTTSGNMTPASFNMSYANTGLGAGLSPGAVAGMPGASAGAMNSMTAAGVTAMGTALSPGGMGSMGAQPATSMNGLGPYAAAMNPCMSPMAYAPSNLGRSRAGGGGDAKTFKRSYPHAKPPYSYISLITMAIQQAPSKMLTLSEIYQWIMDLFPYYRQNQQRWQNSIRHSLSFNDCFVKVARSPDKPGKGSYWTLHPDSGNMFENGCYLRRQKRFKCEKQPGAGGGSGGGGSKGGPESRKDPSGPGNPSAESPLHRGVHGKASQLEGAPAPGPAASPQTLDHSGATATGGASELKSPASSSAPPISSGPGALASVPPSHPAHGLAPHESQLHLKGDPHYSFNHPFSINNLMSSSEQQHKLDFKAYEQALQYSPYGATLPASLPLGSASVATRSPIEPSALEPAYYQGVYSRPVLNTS
Method: EMSA with sequencing
Molecule type: double-stranded DNA, one strand shown
Medium: in vitro
Tested at: 10 and 20 nM
Setting: whole designed probe, mean of two concentrations, ends assumed
Baseline: negative control set to 0
Reading: higher = stronger binding
Constant ends, left off below: GTGAGCGGTGCCCATTGATGGGGAAC … TTTCACTGGGATCGTGGGGAC
Sequence | normalised bound fraction [ratio]
TAAAGTTTTGATTTTTAAAATGATTCCAATGCTTCTGACATAAAAAAATCTGTTGCTGAAATACTTGAATACTATAATATATTAAATGATCTAAGTAATCTTAGGACTACAGAAAAAAGAATATGAGAAAAGGATCAAAAGGAAGTAACTGATAAAAGTCAAGGAGAAATCAAAATTTAAATAAAAGAAATGG | 0.0481
ATCTTCCCCCTCTTCCTTGCCCCACCAGCTCACCTTCCCGGGTTATTTGCAGATAGGAAAATAAATAAAGCCGGCATTCGTTAACCCTCTTCTGGCGCAAACTGCTGTTAGGGATGCTTTGTCCATGATCCTTTGGCGACGCCAGGCTCCGGGAGAGCAAAGCACCGTGTCAGGGCCATGATCCGGGGTGGCC | 0.346
GACAGTACATGTTTTAGGATTTTTGGACCACACAGTCTCTGTCACAATGACTCAGCTTTGCCATTGTAGCGTGCAAACAGCCACAAACCATATGCAAACAAATGGAGGGTGTGGTTATGCCAATAAAACTTTATTTACAAAAGCAGGAGGACAGTGGAGTTGGCTTGCAGACAGTCATTTGCAGAGCCCTGAT | 0.462
GAAAAGTGCAAAGCGTTGGCATCTGGGTCCTTCGTGAAGCTGTGTGATTCTGGACTTTGGACTGTAGTCCACTGTAGCCTGCCTTCTCACTGTGTAAATACATAACTACATGGGCTCCGGTCAGCTTGCCACACGCCACAGGCTATGCCTAATTCTACAAAGCCTGAAGGAAAAATACTGTGAAAAATACTTA | 0.314
TTTCAGAGGACATCCTCTCCCCACCCAACCCCTACACCCGCCATGGCCCCAGGTTCATCTCTGCCGGCCCATATGACTCATTTGCTCTGGTGAGATTACTCAGGCACCAGATTACCCTCGTTTATGGCCGGCTTATTTATGGCTGGCTTCCAGGAACACAAGCTCCAGGAAGCGGTGGCCAAGAAAGTAGTGG | -0.0699
GGCTCCAAACGGCTGAATCAGCATTTTCAGAAACAAAGTGTTCTAGGCCTGGCCTTTTAAACAGCAGGTTGTGCAATCAACGAGCAAAACGCATATTTACTCACGAGCTCTCCTTGTTTTGGTCTTTCCCCCCTCCCCCCCATCTCTTGAATGAAACTGGGCACCAAGTTTGCAAGAAAATATTCTTTCAAAC | 0.132
CTTGGATTCTCTATTCCTGGCCTTTTATAAATTCCTTTGTCCCTGGCTGGGATCCAGCTGGCTTACACAACTGTCAGTGTAATCTCTATCAATATTTACACAAGGGGTCATGCCATCAAAGAAACTAGAGAAATATCAGGATTAGTGCTTTCACTGGATAAAGTTTGAGGATTGAAGAACCTTCTGTTGAGTG | 0.465
TCCCTTTTATAGGAATTATGCAGAAATTATTCCATTTCTTTGAACATTTGGGAGCATATGCAGAGTAAAGTATAAATGCTTGCAGAATGCCTTTATTTGCATATTGCAGTTTTTCAGAAATTATCTCCCTTCAGCACACCAAAGGCTTTGATTTCTACTAATTCTAATAATATTCAGGGTGAAGGAGAAACTG | 0.349

Set 3
Target: Ras GTPase-activating protein-binding protein 1, RRM domain (G3BP1, Homo sapiens, UniProt Q13283)
Chain of UniProt Q13283 (whole entry, looked up): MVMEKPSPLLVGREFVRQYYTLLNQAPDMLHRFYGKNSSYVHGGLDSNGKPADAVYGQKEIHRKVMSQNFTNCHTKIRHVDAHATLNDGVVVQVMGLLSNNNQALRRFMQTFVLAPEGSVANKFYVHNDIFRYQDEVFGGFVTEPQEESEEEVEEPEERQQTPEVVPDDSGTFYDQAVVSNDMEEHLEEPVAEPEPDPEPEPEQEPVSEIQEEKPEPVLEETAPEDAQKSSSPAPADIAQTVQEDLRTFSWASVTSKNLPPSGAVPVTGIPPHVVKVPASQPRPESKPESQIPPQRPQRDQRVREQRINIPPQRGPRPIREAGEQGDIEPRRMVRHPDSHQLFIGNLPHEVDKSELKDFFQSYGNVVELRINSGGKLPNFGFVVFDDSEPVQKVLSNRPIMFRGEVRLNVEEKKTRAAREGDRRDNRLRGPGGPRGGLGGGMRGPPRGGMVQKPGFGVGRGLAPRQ
Method: RNA Bind-n-Seq
Molecule type: RNA
Medium: in vitro
Tested at: 1 µM
Setting: whole 134-nt RNA, ends assumed
Added: 150 mM KCl
Baseline: input library
Reading: higher = stronger binding
Constant ends, left off below: GGGAGUUCUACAGUCCGACGAUC … UGGAAUUCUCGGGUGUCAAGG
Sequence | log2 enrichment
UUGGACUAUGGAUCAGGUACUGUGCUCAGCAUCAGAAAAUGGGAUGACAAUGAACAGAGUAACAGGACUAUAUUUCUGAAAAAGGAUGAA | -0.136
CCUCAAGUCCUGUGCUACACAUCGUAUGUACCGAAUCGGUGGAAAGGAAAGGAAAGUAUUAUGUUACGCCGUUCGGAUCUGCACUUCCAG | -0.122
AGGUCAUGGAUCAAAAAGAACAUAAAUUGAAUGGGAAGGUGAUUGAUCCUAAAAGGGCCAAAGCCAUGAAAACAAAAGAGCCGGUUAAAA | -0.101
UCCUCAAGUCCUGUGCUACACAUCGUAUGUACCGAAUCGGGGCGGCGGGCGGAAAGUAUUAUGUUACGCCGUUCGGAUCUGCACUUCCAG | -0.175
CAAGUCCUGUGCUACACAUCGUAUGUACCGAAUCGGGUUUGGGUUUGGGUUUGGGAAAGUAUUAUGUUACGCCGUUCGGAUCUGCACUUC | 0.769
UGCGAGGUGGAUUUUGUUUAUUUUUUUAGCUCAUUUCCAGGGGUGGGAAUUUUUUUUUAAUAUGUGUCAUGAAUAAAGUUGUUUUUGAAA | 0.885
ACCAAACAGGUGGGCAUCUUUGGGAAGUGGGGCAAGGGGGGGAUAGGGAGGGGGGUAACACUUUGGGAACAGGUGGUCCCAGGUCGUUUC | -0.222
UCCUGUGCUACACAUCGUAUGUACCGAAUCGGGGAAAAAAAGGGGUGGGGUUUUUGGGGAAAGUAUUAUGUUACGCCGUUCGGAUCUGCA | 0.761

Mixed results
Structure (SMILES) | host | medium | tested at | time | endpoint | result
O=C(C1CC(=O)N(c2n[nH]c3cc(Br)ccc23)C1)N1CCCC1 (stereo not shown) | mouse | microsomes or S9 | 2 µM | 0.5 h | remaining compound | > 99%

Some of these lines once more (set 3):
Sequence | log2 enrichment
UCCUCAAGUCCUGUGCUACACAUCGUAUGUACCGAAUCGGGGCGGCGGGCGGAAAGUAUUAUGUUACGCCGUUCGGAUCUGCACUUCCAG | -0.175
CAAGUCCUGUGCUACACAUCGUAUGUACCGAAUCGGGUUUGGGUUUGGGUUUGGGAAAGUAUUAUGUUACGCCGUUCGGAUCUGCACUUC | 0.769
